# Assay results gathered from unrelated publications.
# Each line is one published result; not all experiments were run side by side. ± marks the error that the study gave.
Structure (SMILES),target or system,test,system,setting,scale,measurement,result
Cc1cc(C)n(CCN(CCN)CCCCCCNC(=O)[C@@H](N)Cc2c[nH]cn2)n1.[99Tc+].[C-]#[O+].[C-]#[O+].[C-]#[O+],,,"BALB/c nude mice, MCF7 xenograft, liver","intravenous, 4 h",,tissue uptake,10.1 ± 1.67 %IA/g
COc1cccc(OC)c1-c1cc(C(=O)NC2(C(=O)O)C3CC4CC(C3)CC2C4)nn1-c1ccc(C(=O)N(C)CCOCCOCCN(C)C(=O)[C@H](CCCCNC(=O)[C@H](CC(C)C)NC(=O)C2OC2C(=O)O)NC(=O)CN2CCN(CC(=O)[O-])CCN(CC(=O)[O-])CCN(CC(=O)[O-])CC2)cc1C(C)C.[177Lu+3] (mixture of isomers),,,"mouse, HT-29 xenograft, lung",24 h post injection,,tissue uptake,0.59 %ID/g
O=C(O)CCCOc1ccc([18F])cc1-c1cc(-c2ccccc2C(F)(F)F)n(-c2ccccc2)n1,,,"mouse, bone","intravenous, dose not given, 30 min",,tissue uptake,1.1 ± 0.31 %ID/g
COc1cccc(OC)c1-c1cc(C(=O)NC2(C(=O)O)C3CC4CC(C3)CC2C4)nn1-c1ccc(C(=O)NCCNC(=O)[C@H](CCCCNC(=O)[C@H](CC(C)C)NC(=O)C2OC2C(=O)O)NC(=O)CN2CCN(CC(=O)[O-])CCN(CC(=O)[O-])CCN(CC(=O)[O-])CC2)cc1C(C)C.[177Lu+3] (mixture of isomers),,,"mouse HT-29 xenograft, small intestine","168 h post injection, biodistribution",,tissue uptake,0.11 %ID/g
C[n+]1cc(/C=N/NC(=O)c2cccc(C(=O)N/N=C/c3cc4ccccc4[n+](C)c3)c2)cc2ccccc21,MYC parallel G4 DNA,FRET melting,,"1 µM, DNA 0.2 µM, added: duplex DNA competitor 10 µM",,ΔTm,5.2 ± 0.1 °C
CC(C)C[C@@H](NC(=O)[C@@H](CC(C)C)NC(=O)[C@@H](CC(=O)O)NC(=O)[C@@H](CC(C)C)NC(=O)[C@@H](CC(C)C)NC(=O)[C@@H](CC(C)C)NC(=O)[C@H](NC(=O)[C@@H](CC(=O)O)NC(=O)[C@H](NC(=O)[C@H]1CCCN1C(=O)[C@@H](Cc1ccccc1)NC(=O)[C@@H](CC(C)C)NC(=O)[C@@H](CC(C)C)NC(=O)[C@@H](CC(=O)O)NC(=O)[C@@H](CC(C)C)NC(=O)[C@@H](Cc1ccc(O)cc1)NC(=O)[C@@H](C)NC(=O)[C@@H](CCCNC(=N)N)NC(=O)[C@@H](Cc1c[nH]c2ccccc12)NC(=O)[C@H]1CCCN1C(=O)[C@@H](CC(N)=O)NC(=O)[C@@H](CCC(N)=O)NC(=O)[C@@H](CC(=O)O)NC(=O)[C@@H](CC(=O)O)NC(=O)[C@@H](CSC1CC(=O)N(CCNC(=O)CN2CCN(CC(=O)O)CCN(CC(=O)O)CC2)C1=O)NC(=O)[C@@H](C)N)[C@H](C)O)[C@H](C)O)C(=O)N[C@H](Cc1c[nH]c2ccccc12)C(=O)O (stereo partly shown) [copper-64 labelled],,,"C57BL/6 mice, female, B16-F10 melanoma, tumor","intravenous, 14.5 h",,tissue uptake,11.2 %ID/g
COC1CN([C@H]2CC[C@H]([C@@]3(C)Oc4c(Cl)cc(C(=O)NCc5c(SC)cc(C)[nH]c5=O)c(C)c4O3)CC2)C1,,"RNA-seq, refers to: NDST3","human, whole blood","dose not given, 24 h",baseline: pretreatment baseline,log2 fold change,4.56
N#C[C@@H]1CC(F)(F)CN1C(=O)CNC(=O)c1ccnc2c(NC(=O)[C@H](CCCCNC(=O)CCOCCOCCOCCOCCOCCOCCNC(=O)CN3CCN(CC(=O)[O-])CCN(CC(=O)[O-])CCN(CC(=O)[O-])CC3)NC(=O)CCCc3ccc(I)cc3)cccc12.[177Lu+3],,,"mouse, U-87 MG tumour xenograft, kidneys",1 h,,tissue uptake,6.59 ± 3.94 %ID/g
O=C(NCC1OC2CCC=CCCC2O1)c1ccc([18F])nc1 (stereo not shown),,,"healthy female BALB/c nude mice, spleen","intravenous, 7.4 MBq per mouse, 120 min",,tissue uptake,0.8 ± 0.5 %ID/g
COc1cccc(OC)c1-c1cc(C(=O)NC2(C(=O)O)C3CC4CC(C3)CC2C4)nn1-c1ccc(C(=O)N(C)CCCN(C)CCCN(C)C(=O)[C@H](CCCCNC(=O)[C@H](CC(C)C)NC(=O)C2OC2C(=O)O)NC(=O)CN2CCN(CC(=O)[O-])CCN(CC(=O)[O-])CCN(CC(=O)[O-])CC2)cc1C(C)C.[177Lu+3] (mixture of isomers),,,"mouse HT-29 xenograft, small intestine","24 h post injection, biodistribution",,tissue uptake,0.58 %ID/g
CCCC[C@H](NC(=O)CNC(=O)CNC(=O)[C@H](CCCCNC(=O)[C@H](CC(=O)O)NC(=O)C(C)c1ccc(CC(C)C)cc1)NC(=O)CN1CCN(CC(=O)O)CCN(CC(=O)O)CCN(CC(=O)O)CC1)C(=O)N[C@H]1CC(=O)NCCCC[C@@H](C(N)=O)NC(=O)[C@H](Cc2c[nH]c3ccccc23)NC(=O)[C@H](CCCNC(=N)N)NC(=O)[C@@H](Cc2ccccc2)NC(=O)[C@H](Cc2c[nH]cn2)NC1=O (stereo partly shown) [lutetium-177 labelled],,,"C57 mice, tumour-bearing, tumor",2 h,,tissue uptake,24.1 ± 3.35 %ID/g
C[n+]1cccc2cc(/C=N/NC(=O)N/N=C/c3ccc4c(ccc[n+]4C)c3)ccc21,MYC parallel G4 DNA,FRET melting,,"1 µM, DNA 0.2 µM",,ΔTm,4.7 ± 1.6 °C
N#C[C@@H]1CC(F)(F)CN1C(=O)CNC(=O)c1ccnc2c(NC(=O)[C@@H](N)CCCCNC(=O)CCOCCOCCOCCOCCOCCOCCNC(=O)CN3CCN(CC(=O)[O-])CCN(CC(=O)[O-])CCN(CC(=O)[O-])CC3)cccc12.[177Lu+3],,,"mouse, U-87 MG tumour xenograft, kidneys",24 h,,tissue uptake,2.68 ± 0.04 %ID/g

# Excerpt of the above:
Structure (SMILES),target or system,test,system,setting,scale,measurement,result
O=C(O)CCCOc1ccc([18F])cc1-c1cc(-c2ccccc2C(F)(F)F)n(-c2ccccc2)n1,,,"mouse, bone","intravenous, dose not given, 30 min",,tissue uptake,1.1 ± 0.31 %ID/g
